Measured values from different studies.
Lines come from different studies, so protocols differ. “And” joins repeats or separate records; there may be more than shown. ± gives the spread as reported.
USP3 ZnF-UBD domain: Ubiquitin carboxyl-terminal hydrolase 3, ZnF-UBD domain (USP3, Homo sapiens, UniProt Q9Y6I4)
Chain of UniProt Q9Y6I4 (whole entry, looked up): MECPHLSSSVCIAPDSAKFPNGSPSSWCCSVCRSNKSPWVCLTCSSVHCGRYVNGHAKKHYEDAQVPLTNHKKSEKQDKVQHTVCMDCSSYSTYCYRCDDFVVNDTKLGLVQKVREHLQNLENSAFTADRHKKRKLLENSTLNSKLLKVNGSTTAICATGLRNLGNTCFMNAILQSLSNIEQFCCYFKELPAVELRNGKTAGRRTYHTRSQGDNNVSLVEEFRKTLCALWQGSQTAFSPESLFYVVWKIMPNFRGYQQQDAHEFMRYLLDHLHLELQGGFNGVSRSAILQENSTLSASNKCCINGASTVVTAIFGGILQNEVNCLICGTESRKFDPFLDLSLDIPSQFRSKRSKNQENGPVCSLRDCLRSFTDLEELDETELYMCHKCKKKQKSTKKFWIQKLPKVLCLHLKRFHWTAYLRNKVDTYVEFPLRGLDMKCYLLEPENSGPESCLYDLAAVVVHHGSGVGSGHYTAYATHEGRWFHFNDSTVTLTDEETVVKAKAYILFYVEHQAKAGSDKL

| SMILES | target or system | assay | system | conditions | scale | endpoint | result |
| --- | --- | --- | --- | --- | --- | --- | --- |
| CC(=O)OC[C@H]1OC(OC(C)=O)[C@@H](NC(=O)CN=[N+]=[N-])[C@@H](OC(C)=O)[C@@H]1OC(C)=O (stereo partly drawn) |  | item: RBC and WBC | C57BL/6 mouse | dose not given, day 0.5 to 7.5 | reference: PBS | blood cell counts | no effect |
| O=C(COc1ccc(Cl)cc1)NC12CC(c3nnc([C@H]4C[C@@H](OC(F)(F)F)C4)o3)(C1)C2 |  | item: Hypogeusia | human | 28 (unit not given) |  | adverse event incidence | 10.5% |
| NC1(C(=O)N[C@@H](CCO)c2ccc(Cl)cc2)CCN(c2nc[nH]c3nccc2-3)CC1 |  |  | metastatic CRPC patients | 400 mg b.i.d., any grade, treatment-related, added: enzalutamide 160 mg daily |  | incidence of Pyrexia | 14.3% |
| O=C(Nc1ccc(Cl)cc1)Nc1ccc(Cl)c(Cl)c1 |  |  | whole cow milk | 2000 nM nominal |  | dose fraction in skim milk | 10.8% |
| CCOc1c([C@H](C)n2nc(C)c3c(N)ncnc32)cc(Cl)c(F)c1[C@@H]1CNC(=O)C1 |  |  | patients, monotherapy | oral, 30 mg once daily, cycle 1 day 15 |  | Cmax | 3.31 ± 0.682 µM |
| Cc1cn(C(=O)c2c(-c3c(Cl)cc(Cl)cc3Cl)noc2C(C)(C)F)c2cccc(/C=C/C(=O)O)c12 |  |  | human patients | 250 mg bid, cycle 8 day 1 |  | AUC(0-8h) | 159000 ng·h/mL |
| Nc1cccc2ccc(/C=C/C(=O)c3ccccc3)cc12 |  |  | toluene | 20 °C |  | excitation maximum | 417 nm |
| COc1ccnc(C(N)=O)c1O |  | soil adsorption | clay loam soil | pH 7.2, organic carbon 4.4 % |  | KFoc | 396 mL/g |
| Cc1ncc(CO)c(C(=O)O)c1O |  |  | human, plasma | dose not given, baseline geometric mean |  | AUC(0-8h) | 0.212 µM·h |
| CN(C)N=Nc1[nH]cnc1C(N)=O |  |  | human patients, plasma | intravenous, 1000 mg/m^2 over 1 h, cycle 1 day 1, given alone |  | AUC(0-8h) | 96400 ng·h/mL |
| Cc1ccc([C@@H]2O[C@H](CO)[C@@H](O)[C@H](O)[C@H]2O)cc1Cc1ccc(-c2ccc(F)cc2)s1 |  |  | Japanese type 2 diabetes patients | 400 mg, day 18, 24 h urine collection | reference: baseline | urinary chloride excretion change | -23.5 mEq |
| CC(C)Cn1cnc2c(N)nc3ccccc3c21 |  |  | C57BL/6J CYP1A-knockout male mice, corn oil-treated, liver microsomes | 1 µM, 45 min | reference: control | remaining compound | 37% |
| C[C@H]1CN(C(=O)CC#N)[C@]12CCN(c1ncnc3[nH]ccc13)C2 |  |  | healthy adults, plasma | oral, 6 mg single dose |  | half-life (geometric mean) | 2.9 h |
| NC[C@@]1(CC(=O)O)[C@@H]2CC[C@H]3C[C@@H]2[C@@H]1C3 |  |  | human, moderate renal impairment, plasma | dose not given, geometric mean |  | unbound AUC(0-t) | 3450 ng·h/mL |
| O=C(Nc1nc2cccc(-c3ccc(CN4CCS(=O)(=O)CC4)cc3)n2n1)C1CC1 |  | item: hypercholesterolaemia | human rheumatoid arthritis patients | oral, 75 mg once daily, 4 weeks, regardless of relatedness |  | treatment-emergent adverse events | 4.5% |
| c1ncc(-c2ccc(C3CCCCC3)cc2)cn1 |  | hepatocyte stability | cryopreserved human hepatocytes | 1 µM |  | hepatic clearance | 13 mL/min/kg |
| O=C(OC(C(F)(F)F)C(F)(F)F)N1CCN(Cc2cccc(Oc3ccccc3)c2)CC1 |  | PET blocking study | rhesus monkey, brain HIP | 0.03 mg/kg, compound pretreatment, added: [18F]T-401 tracer |  | Ktrans | 0.004 min⁻¹ |
| O=C(CCC(C(=O)[O-])N1CCN(C(CCC(=O)NCC(O)CO)C(=O)[O-])Cc2cccc(n2)CN(C(CCC(=O)NCC(O)CO)C(=O)[O-])CC1)NCC(O)CO.[Gd+3] (stereo not drawn) |  | ICP-MS | rat, femur bone marrow | intravenous, 0.6 mmol Gd/kg, 1 week |  | Gd concentration | 2.6 nmol/g |
| CC(C)(C(=O)N1CCOc2c(C#N)cncc2C1)C(F)F |  | item: skin disorders | healthy humans, both sexes | oral, 10 mg single dose |  | share of subjects with TEAE | 16.7% |
| COc1ccc2c(c1)CN(C(=O)CCN1CCC(Cc3ccccc3)CC1)CC[S@@+]2[O-] |  | telemetry | conscious dog | intravenous, 2 mg/kg, 24 h |  | diastolic blood pressure | 80 ± 11 mmHg |
| OC[C@H]1O[C@@H](c2ccc(F)c(Cc3cc4ccccc4s3)c2)[C@H](O)[C@@H](O)[C@@H]1O |  |  | Japanese patients, type 1 diabetes | oral, 50 mg/day, onset day 8 | reference: patients | hypoglycaemia-related adverse event | 4% |
| O=C(O)COc1cnc2ccccc2n1 | USP3 ZnF-UBD domain |  |  |  |  | Kd | > 1000 µM |
| CN(C(=O)C(C)(C)c1cc(C(F)(F)F)cc(C(F)(F)F)c1)c1cnc(N2C[C@H]3COCCN3C[C@H]2CO)cc1-c1ccc(F)cc1[14CH3] |  |  | human liver microsomes | pH 7.4, formation of M30/34 |  | pathway contribution | 60% |
| CCCOc1ccc(NC(=O)CN2CCN(C)CC2)cc1-c1nc(CC)c(CC)c(=O)[nH]1 |  |  | healthy Chinese men | 10 mg, supine or semi-supine, added: placebo | reference: baseline | maximal decrease in diastolic BP | -12.6 ± 3.79 mmHg |

| SMILES | target or system | assay | system | conditions | scale | endpoint | result |
| --- | --- | --- | --- | --- | --- | --- | --- |
| Cc1ccc(CCC(=O)Nc2nnc(S(N)(=O)=O)s2)cc1 |  |  | BALB/c mouse, male, plasma | oral, 20 mg/kg, 8 h |  | unbound plasma concentration | 0.001 ng/mL |
| CC(C)C[C@@H]1NC(=O)[C@H](CCCCN)NC(=O)[C@H](CC(N)=O)NC(=O)[C@H](CCCNC(=N)N)NC(=O)[C@H]([C@@H](C)O)NC(=O)[C@@H]2CSSC[C@@H]3NC(=O)[C@H]([C@@H](C)O)NC(=O)CNC(=O)CNC(=O)[C@H](C(C)C)NC(=O)[C@@H]4CSSC[C@H](NC(=O)[C@H](CCCCN)NC(=O)[C@H](CSSC[C@H](NC(=O)[C@H](C(C)C)NC(=O)[C@@H]5CCCN5C1=O)C(=O)NCC(=O)N[C@@H](CCC(=O)O)C(=O)N[C@@H]([C@@H](C)O)C(=O)N4)NC(=O)CNC(=O)[C@@H]1CCCN1C(=O)[C@H]([C@@H](C)O)NC(=O)[C@H](CC(N)=O)NC3=O)C(=O)N[C@@H](CO)C(=O)N[C@@H](Cc1c[nH]c3ccccc13)C(=O)N1CCC[C@H]1C(=O)N[C@@H](C(C)C)C(=O)N2 |  | HPLC | ammonium bicarbonate 0.1 M | 180 µM, 7 days, pH 9.0, 37 °C, deamidation stability |  | remaining peptide | 99.2 ± 0.6% |
| O=C(Nc1cnccc1Cl)N1CCN(Cc2ccc3c(c2)OC(F)(F)O3)CC1 |  | multiple ascending dose | young women | 100 mg, treatment-emergent adverse events |  | hepatic enzyme increased | 16.7% |
| CN(C)CCC(=O)Nc1ccc([C@H]2[C@@H](F)[C@@H](F)C[C@@H](F)[C@H]2F)cc1 |  | hepatocyte stability | cryopreserved mouse hepatocytes | 1 µM |  | hepatic clearance | 24 mL/min/kg |
| CNC(=O)c1ccc(-c2cnc3ncc(Cc4ccc5ncccc5c4)n3n2)cc1F |  |  | healthy human subjects | oral, 200 mg, grade 3, all causality, added: itraconazole 200 mg/day |  | subjects with adverse events | 11.1% |
| Cl.[2H]C([2H])([2H])CC(=O)c1cnc(NC(=O)C2CC2)cc1Nc1cccc(-c2ncn(C([2H])([2H])[2H])n2)c1OC |  | geometric mean | human | oral, 25 mg single dose, fasted, liquid |  | half-life | 7.97 h |
| C[C@@H](N)C1CCN(S(=O)(=O)c2cccc3cnccc23)CC1 |  | item: Headache | healthy volunteers | 150 mg, fed |  | TEAE incidence | 20% |
| Cc1ccc(C)c(OCCCC(C)(C)C(=O)O)c1 |  |  | human, plasma | oral, dose not given, day 14 predose, median |  | trough plasma concentration | 1700 ng/mL |
| CN1CCC(c2ccc(-c3ccc(C4CCCCC4)cc3)cn2)CC1 |  | liver microsome stability | dog liver microsomes | 1 µM |  | hepatic clearance | 27 mL/min/kg |
| N#Cc1ccc2c(c1)[C@H]1CCCN(C(=O)c3ccc4[nH]cnc4c3)[C@H]1C2 |  |  | human | 240 mg, end of trial |  | minimum ACTH level | 2 pmol/L |
| CN(CCC#N)C(=O)c1ccc(C2CCCCC2)cc1 |  | liver microsome stability | rat liver microsomes | 1 µM |  | hepatic clearance | 52 mL/min/kg |
| CCN1CCN(Cc2ccc(NC(=O)c3ccc(C)c(NC(=O)c4cncc(-c5cccs5)c4)c3)cc2C(F)(F)F)CC1 |  | LC-MS/MS | C57BL/6 mouse, plasma | intraperitoneal, 10 mg/kg single dose, 2 h |  | plasma concentration | 168 ng/mL and 190 ng/mL and 201 ng/mL |
| CC[C@H](C)[C@H](NC(=O)[C@H](Cc1ccccc1)NC(=O)[C@H](CCC(=O)O)NC(=O)[C@H](CCCCNC(=O)COCCOCCNC(=O)COCCOCCNC(=O)CC[C@H](NC(=O)CCCCCCCCCCCCCCCCC(=O)O)C(=O)O)NC(=O)[C@H](C)NC(=O)[C@H](C)NC(=O)[C@H](CCC(N)=O)NC(=O)CNC(=O)[C@H](CCC(=O)O)NC(=O)[C@H](CC(C)C)NC(=O)[C@H](Cc1ccc(O)cc1)NC(=O)[C@H](CO)NC(=O)[C@H](CO)NC(=O)[C@@H](NC(=O)[C@H](CC(=O)O)NC(=O)[C@H](CO)NC(=O)[C@@H](NC(=O)[C@H](Cc1ccccc1)NC(=O)[C@@H](NC(=O)CNC(=O)[C@H](CCC(=O)O)NC(=O)C(C)(C)NC(=O)[C@@H](N)Cc1cnc[nH]1)[C@@H](C)O)[C@@H](C)O)C(C)C)C(=O)N[C@@H](C)C(=O)N[C@@H](Cc1c[nH]c2ccccc12)C(=O)N[C@@H](CC(C)C)C(=O)N[C@H](C(=O)N[C@@H](CCCNC(=N)N)C(=O)NCC(=O)N[C@@H](CCCNC(=N)N)C(=O)NCC(=O)O)C(C)C |  | item: Moderate adverse events | type 2 diabetes patients | dose not given | reference: subjects | adverse event incidence | 46.7% |
| Cn1cc(-c2cn3nccc3c(-c3cnn([C@]4(CC#N)C[C@@H](C#N)C4)c3)n2)cn1 |  |  | healthy humans fed, plasma | oral, 400 mg once daily, day 10, geometric mean | reference: day 10 over day 1 | observed accumulation ratio | 1.2 |
| CN(C(=O)n1cnc(-c2ccc[n+]([O-])c2)c1)[C@H]1CC[C@H](O)CC1 |  |  | Wistar rat, pons | oral, 10 mg/kg of BIA 10-2474, 24 h, single dose |  | concentration | 9.6 ± 0.4 ng/g |
| O=C(Nc1ccc([C@H]2[C@@H](F)[C@@H](F)C[C@@H](F)[C@H]2F)cc1)c1cn[nH]c1 |  |  | human liver microsomes | 1 µM, without NADPH |  | hepatic clearance | 3.9 mL/min/kg |
| CN(C)C(=O)c1cc2cnc(Nc3ccc(N4CCNCC4)cn3)nc2n1C1CCCC1 |  |  | human, mild renal impairment, plasma | oral, 400 mg, geometric mean |  | Vz/F | 3550 L |
| O=C(NCc1cc[nH]n1)c1ccc(C2CCCCC2)cc1 |  | liver microsome stability | human liver microsomes | 1 µM, without NADPH |  | hepatic clearance | 3.9 mL/min/kg |
| O=C(O)CCC(=O)c1ccc(S(=O)(=O)N2CCCC2)cc1 | USP3 ZnF-UBD domain |  |  |  |  | Kd | 91.5 µM |
| CCN1/C(=C/C(C)=O)Sc2ccc(F)cc21 |  |  | cynomolgus monkey | oral, 100 mg/kg, 24 h post-dose | reference: pre-dose | heart rate change | 110 ± 12.3% |
| CSCC[C@H](N)C(=O)N[C@H](CC(C)C)C(=O)N[C@@H](CCCNC(=N)N)C(=O)N[C@@H](Cc1c[nH]c2ccccc12)C(=O)N[C@@H](CO)C(=O)N[C@@H](CCCNC(=N)N)C(=O)N[C@@H](CCCCN)C(=O)N[C@@H](CC(C)C)C(=O)N1CCC[C@H]1C(=O)N[C@@H](CS)C(=O)N[C@H](C(=O)N[C@@H](CO)C(N)=O)C(C)C |  | 12G5 competition, SUP-T1 cells | human plasma | 20 µM, 8 h, 37 °C |  | remaining activity | 45 ± 5% |
| NC(=O)N1c2ccccc2C=Cc2ccccc21 |  | item: gastrointestinal disorders (SOC) | human male | oral, dose not given, AEs, treatment-related, on drug, CTCAE |  | adverse events incidence | 33% |
| COCCC(=O)Nc1ccc([C@H]2[C@@H](F)[C@@H](F)C[C@@H](F)[C@H]2F)cc1 |  | liver microsome stability | cynomolgus liver microsomes | 1 µM |  | hepatic clearance | 4.9 mL/min/kg |
| COc1cc2nccc(Oc3ccc(NC(=O)c4cc5c(n(-c6ccccc6)c4=O)CCCC5=O)nc3)c2cc1OC |  |  | human patients | oral, dose not given, day 29, with venetoclax 6 mg once daily |  | AUC(0-10 h) | 4260 ng·h/mL |
